{"data": "Results collected from several papers", "CDK2 with cyclin E": "Cyclin-dependent kinase 2, with cyclin E (CDK2, Homo sapiens, UniProt P24941)", "CDK2 with cyclin E1": "Cyclin-dependent kinase 2, with cyclin E1 (CDK2, Homo sapiens, UniProt P24941)", "note": "Compare with care: the assays were run in different laboratories."}
{"Compound": "CN1CC[C@@H](COc2cnc(C#N)cc2-c2ccn3nc(NC(=O)C4CC4)cc3c2)C1", "target": "CDK2 with cyclin E", "read-out": "enzyme activity", "mode": "inhibitor", "tested at": "1 µM", "inhibition [%]": 4}
{"Compound": "NC(=O)C[C@H]1CCc2sc3ncnc(O[C@H]4CC[C@H](N5CCOCC5)CC4)c3c21", "target": "Cyclin-dependent kinase 2, with cyclin A1 (CDK2, Homo sapiens, UniProt P24941)", "read-out": "enzyme activity", "mode": "inhibitor", "tested at": "10 µM", "inhibition [%]": 35}
{"Compound": "COc1ccc(C(=O)/C=C/c2ccccc2-c2c[nH]c3ccc(C#N)cc23)c(O)c1", "target": "CDK2 with cyclin E", "read-out": "enzyme activity", "mode": "inhibitor", "tested at": "20 µM", "inhibition [%]": 13}
{"Compound": "CCn1cc(C(=O)O)c(=O)c2c(N)c(F)c(NC3CCCCC3)cc21", "target": "CDK2 with cyclin E1", "read-out": "kinase activity", "tested at": "0.1 µM", "added": "ATP at Km", "inhibition [%]": 20.1}
{"Compound": "Cc1[nH]nc2c1N=C(c1ccccc1Cl)c1cnc(N3CCOCC3)cc1N2", "target": "CDK2 (Homo sapiens, UniProt P24941)", "read-out": "enzyme activity", "mode": "inhibitor", "tested at": "0.5 µM", "inhibition [%]": 7.9}
{"Compound": "C=CC(=O)Nc1cccc(-c2cnc3[nH]cc(C(=O)NC(C)(C)C)c3n2)c1", "target": "CDK2 with cyclin E", "read-out": "kinase activity", "tested at": "0.1 µM", "inhibition [%]": 21}
{"Compound": "C=CC(=O)N1Cc2nc(-c3cc(-c4cc(Cl)cnc4Cl)c(F)cc3F)n(-c3ccncn3)c2C1", "target": "Cyclin-dependent kinase 2, with cyclin O (CDK2, Homo sapiens, UniProt P24941)", "read-out": "cell-free assay", "mode": "inhibitor", "tested at": "1 µM", "inhibition [%]": -7.1}
{"Compound": "NC(=O)[C@@H](O)C[C@H]1CCc2sc3ncnc(O[C@H]4CC[C@H](N5CCOCC5)CC4)c3c21", "target": "Cyclin-dependent kinase 2, with cyclin A (CDK2, Homo sapiens, UniProt P24941)", "read-out": "enzyme activity", "mode": "inhibitor", "tested at": "10 µM", "inhibition [%]": 36}
{"Compound": "CN1CCN(Cc2ccc(-c3ccc(CO[C@H]4CCC[C@@H]4NC(=O)c4cc(-c5cnn(C)c5)cnc4N)cc3)cc2)CC1", "target": "CDK2 with cyclin E1", "read-out": "enzyme activity", "mode": "inhibitor", "tested at": "0.1 µM", "inhibition [%]": -17}
{"Compound": "Cc1cccc(O[C@H]2CCC[C@@H](C(C)CNCc3ccncc3)C2)c1 (relative stereo)", "target": "CDK2 with cyclin E", "read-out": "kinase activity", "method": "kinome panel screening", "tested at": "10 µM", "inhibition [%]": -4}
